Assay results from different studies.
Lines come from different studies, so protocols differ. In brackets after ≈: the same amount, converted by molar mass. Bridges are numbered along the chain shown (N, C = ends). Where no end group is shown, it is not given here.
Organism: Staphylococcus aureus

Substance	assay	test system	conditions	scale	measurement	value
CCCCCCOc1c(OC)cc(NC(C)CCCNC(=O)C(N)CCSC)c2nc(C(C)(C)C)ccc12 (stereo not shown)	microbial growth	ATCC33591 MRSA	drug-resistant strain	–	IC50	4.77 µg/mL (≈ 8.72 µM)
CC[C@H](C)[C@H](N)C(=O)N[C@@H](CC(C)C)C(=O)N1CCC[C@H]1C(=O)N[C@@H](Cc1c[nH]c2ccccc12)C(=O)N[C@@H](CCCCN)C(=O)N[C@@H](Cc1c[nH]c2ccccc12)C(=O)N1CCC[C@H]1C(=O)N[C@@H](Cc1c[nH]c2ccccc12)C(=O)N[C@@H](Cc1c[nH]c2ccccc12)C(=O)N1CCC[C@H]1C(=O)N[C@@H](Cc1c[nH]c2ccccc12)C(=O)N[C@@H](CCCNC(=N)N)C(=O)N[C@@H](CCCNC(=N)N)C(N)=O	broth microdilution	methicillin-resistant clinical isolates, Mueller-Hinton broth	18 h, 35 °C	–	MIC50	8 µg/mL (≈ 4.2 µM)
CCCCCCCCOc1c(OC)cc(NC(C)CCCNC(=O)C(N)CCSC)c2nc(C(C)(C)C)ccc12 (stereo not shown)	microbial growth	ATCC33591 MRSA	drug-resistant strain	–	IC50	10.7 µg/mL (≈ 18.7 µM)
CC(C)C[C@@H](NC(=O)[C@H](C)NC(=O)CNC(=O)[C@@H](NC=O)C(C)C)C(=O)N[C@@H](C)C(=O)N[C@@H](C(=O)N[C@H](C(=O)N[C@@H](C(=O)N[C@@H](Cc1c[nH]c2ccccc12)C(=O)N[C@H](CC(C)C)C(=O)N[C@@H](Cc1c[nH]c2ccccc12)C(=O)N[C@H](CC(C)C)C(=O)N[C@@H](Cc1c[nH]c2ccccc12)C(=O)N[C@H](CC(C)C)C(=O)N[C@@H](Cc1c[nH]c2ccccc12)C(=O)NCCO)C(C)C)C(C)C)C(C)C	–	ATCC 8530	–	–	MBC	2 µM (≈ 3.76 µg/mL)
CO/N=C(\C(=O)N[C@@H]1C(=O)N2C(C(=O)O)=C(CSc3nc(=O)c(=O)[nH]n3C)CS[C@H]12)c1csc(N)n1	checkerboard broth microdilution	ATCC 38591 oxacillin-resistant	together with: magainin II	–	FIC index	0.25
CCCCCOc1c(OC)cc(NC(C)CCCN)c2nc(C(C)(C)C)ccc12 (stereo not shown)	microbial growth	ATCC33591 MRSA	drug-resistant strain	–	IC50	8.68 µg/mL (≈ 21.6 µM)
FFPKVAGVAAKVLKKFCTISKKC (disulfide 17-23 (inferred)) (disulfide)	–	MRSA 12493	18 h, 37 °C	–	MBC	> 128 µM
CC[C@H](C)[C@H](NC(=O)[C@H](CCCCN)NC(=O)[C@H](CCC(=O)O)NC(=O)[C@H](CCCCN)NC(=O)[C@H](CO)NC(=O)[C@H](CCCCN)NC(=O)[C@H](CCCNC(=N)N)NC(=O)[C@H](Cc1ccccc1)NC(=O)[C@H](Cc1ccccc1)NC(=O)[C@H](CC(=O)O)NC(=O)CNC(=O)[C@H](CC(C)C)NC(=O)[C@@H](N)CC(C)C)C(=O)NCC(=O)N[C@@H](CCCCN)C(=O)N[C@@H](CCC(=O)O)C(=O)N[C@@H](Cc1ccccc1)C(=O)N[C@@H](CCCCN)C(=O)N[C@@H](CCCNC(=N)N)C(=O)N[C@H](C(=O)N[C@H](C(=O)N[C@@H](CCC(N)=O)C(=O)N[C@@H](CCCNC(=N)N)C(=O)N[C@H](C(=O)N[C@@H](CCCCN)C(=O)N[C@@H](CC(=O)O)C(=O)N[C@@H](Cc1ccccc1)C(=O)N[C@@H](CC(C)C)C(=O)N[C@@H](CCCNC(=N)N)C(=O)N[C@@H](CC(N)=O)C(=O)N[C@@H](CC(C)C)C(=O)N[C@H](C(=O)N1CCC[C@H]1C(=O)N[C@@H](CCCNC(=N)N)C(=O)N[C@H](C(=O)N[C@@H](CCC(=O)O)C(=O)N[C@@H](CO)C(=O)O)[C@@H](C)O)C(C)C)[C@@H](C)CC)C(C)C)[C@@H](C)CC	–	JE2 SAUSA300_0646 graS transposon mutant	12.5% TSB	relative to: wild type over mutant	MIC ratio	2 fold
CC(C)C[C@H](NC(=O)[C@H](CCCCN)NC(=O)[C@H](CC(C)C)NC(=O)[C@H](Cc1c[nH]c2ccccc12)NC(=O)[C@H](CCCNC(=N)N)NC(=O)[C@H](Cc1ccccc1)NC(=O)[C@H](CCCNC(=N)N)NC(=O)[C@H](CCCNC(=N)N)NC(=O)[C@H](CCCCN)NC(=O)[C@@H](N)CCCCN)C(=O)N[C@@H](CCCCN)C(=O)O	bacterial killing, colony count	ATCC 12600	1 h, pH 7, 37 °C	–	EC50	10.6 µg/mL (≈ 6.8 µM)
CC[C@H](C)[C@H](NC(=O)[C@H](C)NC(=O)[C@@H](NC(=O)[C@H](C)NC(=O)CN)[C@@H](C)O)C(=O)N[C@@H](CCCCN)C(=O)N[C@@H](CCC(N)=O)C(=O)N[C@H](C(=O)N[C@@H](CCCCN)C(=O)N[C@@H](CCCCN)C(=O)N[C@@H](CC(C)C)C(=O)N[C@@H](Cc1ccccc1)C(=O)N[C@@H](CCCCN)C(=O)N[C@@H](CCCCN)C(=O)N[C@@H](CCCCN)C(=O)NCC(=O)NCC(N)=O)C(C)C	–	ATCC 25923	24 h, 37 °C	–	MBC	> 620 µM

A few entries again:
Substance	assay	test system	conditions	scale	measurement	value
CC[C@H](C)[C@H](N)C(=O)N[C@@H](CC(C)C)C(=O)N1CCC[C@H]1C(=O)N[C@@H](Cc1c[nH]c2ccccc12)C(=O)N[C@@H](CCCCN)C(=O)N[C@@H](Cc1c[nH]c2ccccc12)C(=O)N1CCC[C@H]1C(=O)N[C@@H](Cc1c[nH]c2ccccc12)C(=O)N[C@@H](Cc1c[nH]c2ccccc12)C(=O)N1CCC[C@H]1C(=O)N[C@@H](Cc1c[nH]c2ccccc12)C(=O)N[C@@H](CCCNC(=N)N)C(=O)N[C@@H](CCCNC(=N)N)C(N)=O	broth microdilution	methicillin-resistant clinical isolates, Mueller-Hinton broth	18 h, 35 °C	–	MIC50	8 µg/mL (≈ 4.2 µM)
